# Measurements from different studies.
# Numbered parts are unrelated; each lists some results of a single study.

# Series 1
# Target: Phosphate system positive regulatory protein PHO4, full length, GST-tagged (PHO4, Saccharomyces cerevisiae, UniProt P07270, residues 1-312)
# Method: competition protein-binding microarray
# Form: double-stranded DNA, one strand shown
# Matrix: in vitro
# Tested at: 2 µM
# Setting: whole 60-bp probe, lowest competitor level
# Together with: Cbf1 competitor, 0.05 µM
# Direction: higher = stronger binding
# Shared flanks, not repeated: … GTCTTGATTCGCTTGACGCTGCTG
# Target sequence (chain): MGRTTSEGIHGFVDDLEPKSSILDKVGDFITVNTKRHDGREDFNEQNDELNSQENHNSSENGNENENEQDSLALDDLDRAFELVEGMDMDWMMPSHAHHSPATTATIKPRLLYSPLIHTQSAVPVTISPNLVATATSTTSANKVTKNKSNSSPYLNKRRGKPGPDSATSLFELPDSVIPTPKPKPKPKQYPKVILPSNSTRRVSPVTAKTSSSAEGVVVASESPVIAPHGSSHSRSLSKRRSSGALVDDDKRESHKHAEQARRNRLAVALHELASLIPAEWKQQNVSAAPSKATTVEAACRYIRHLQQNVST
Sequence,fluorescence intensity [a.u.]
TGGCGGTTAGTCCTCTGCGTGATGGATCGTTGTAAT,5700
AAATTACTAAGTTGCGTGGTGGGTGACGCCGTATGA,6990
TTAGAATCGCTTTGTCACGTTTTTTTTTATTTCTTG,12900
CCAAGCCGCCAGCCCCGCGTGCGGCCTGCCGCGAGG,8960
ATGAAGTTATTTCCAATCGTGCCAGTGAGATCCTAG,6770

# Series 2
# Target: Histone acetyltransferase KAT6A, winged helix 2, GST fusion (KAT6A, Homo sapiens, UniProt Q92794, residues 85-181)
# Method: protein binding microarray
# Form: double-stranded DNA, one strand shown
# Matrix: in vitro
# Tested at: not given
# Setting: 8-mer, flanks averaged, mean of 2 arrays, mostly near background
# Reference: not given
# Direction: higher = stronger binding
# Residues (chain): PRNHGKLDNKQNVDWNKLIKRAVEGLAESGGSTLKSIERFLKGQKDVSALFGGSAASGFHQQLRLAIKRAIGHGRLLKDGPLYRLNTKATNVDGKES
Sequence,E-score
AGAAGACG,-0.00592
CTTTAATC,0.0641
AGGGTCAA,0.102
CCACCTGA,-0.0972

# Series 3
# Target: Ras GTPase-activating protein-binding protein 1, full length (G3BP1, Homo sapiens, UniProt Q13283)
# UniProt Q13283, sequence (whole entry, looked up): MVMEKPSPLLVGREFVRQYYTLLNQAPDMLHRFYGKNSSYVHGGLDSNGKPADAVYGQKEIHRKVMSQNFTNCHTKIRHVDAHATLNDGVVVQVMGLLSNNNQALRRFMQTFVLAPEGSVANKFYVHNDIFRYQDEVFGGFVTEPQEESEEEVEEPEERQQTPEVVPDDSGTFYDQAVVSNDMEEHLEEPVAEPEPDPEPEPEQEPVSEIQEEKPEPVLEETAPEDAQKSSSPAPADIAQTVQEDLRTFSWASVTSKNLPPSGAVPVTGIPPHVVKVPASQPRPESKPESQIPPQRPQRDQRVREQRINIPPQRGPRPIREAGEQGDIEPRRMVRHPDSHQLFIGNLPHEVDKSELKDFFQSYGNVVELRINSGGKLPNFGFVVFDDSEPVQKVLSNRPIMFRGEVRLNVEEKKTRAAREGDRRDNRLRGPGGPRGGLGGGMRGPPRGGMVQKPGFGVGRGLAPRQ
# Method: RNA Bind-n-Seq
# Form: RNA
# Matrix: in vitro
# Tested at: 200 nM
# Setting: whole 134-nt RNA, ends assumed
# Together with: 150 mM LiCl
# Reference: input library
# Direction: higher = stronger binding
# Each molecule: 7-deaza-guanosine replaces G
Sequence,log2 enrichment
GGGAGUUCUACAGUCCGACGAUCUCCUGUGCUACACAUCGUAUGUACCGAAUCGGGGCCCCCCGGCCCCCCGGCCCCCCGGGGAAAGUAUUAUGUUACGCCGUUCGGAUCUGCUGGAAUUCUCGGGUGUCAAGG,0.726
GGGAGUUCUACAGUCCGACGAUCGCAGGAAGUAAAAACAAAUGGAAAUGUUUCGGAUAGUGGCAGGGGUGGGGGUUGCUAAGGAAAGGGUGGGAUGGGAGUGGGUAAAGAGUUUGGAAUUCUCGGGUGUCAAGG,-0.0554
GGGAGUUCUACAGUCCGACGAUCUCCUGUGCUACACAUCGUAUGUACCGAAUCGGGGUUUUUUUGGGGAGGGGUUUUUGGGGAAAGUAUUAUGUUACGCCGUUCGGAUCUGCAUGGAAUUCUCGGGUGUCAAGG,0.757
GGGAGUUCUACAGUCCGACGAUCUCAAGUCCUGUGCUACACAUCGUAUGUACCGAAUCGGGGCCGGGGCCGGCCGGGAAAGUAUUAUGUUACGCCGUUCGGAUCUGCACUUCCUGGAAUUCUCGGGUGUCAAGG,0.323

# Mixed results
Substance,target,assay,system,setting,scale,quantity,result
"PhoQ, residues 284 288 289 292 302 303 SACGEM","PhoP, residues 12 14 15 18 19 AGCRL (Escherichia coli, UniProt P23836)","Sort-seq, measured: YFP reporter",E. coli,"PhoQ-PhoP variant library, together with: 10 µM Mg2+","reference: high Mg2+ state, higher = stronger signaling",fold induction,7.31

# For quick reference, copied from above (series 2):
Sequence,E-score
AGGGTCAA,0.102
